Results gathered from unrelated publications.
Compare with care: the assays were run in different laboratories. Values joined by “and” are separate records of one study, mostly repeats; a detail may differ. Numbers after ± are the reported error.

Compound | test | system | conditions | tissue uptake
CC[C@H](C)[C@H](NC(=O)C[C@H](NC(=O)CN1CCN2CCN(CC1)CC(=O)[O][Al]([18F])[O]C(=O)C2)C(=O)O)C(=O)N[C@H]1CCc2cccc3c2N(C1=O)[C@H](C(=O)NCc1cn[nH]n1)C3 | – | C57BL/6J mice, MC-38 tumour, anti-PD-1 treated, brain | 0.5 h | 0.08 ± 0.05 %ID/g
CC(C)c1noc(C2CCN(c3ncnc(Nc4ccc(OCC[18F])cc4)c3[N+](=O)[O-])CC2)n1 | ex vivo biodistribution after PET | C57BL/J male mice, brain | 60 min | 0.21 ± 0.06 %ID/g
N#C[C@@H]1CCCN1C(=O)CNC(=O)c1ccnc2ccc(OCCCN3CCN(C(=O)CCc4ccc5c(c4)CN4CCN6CC(=O)[O][68Ga-]([O]C(=O)C4)([O]5)[O]c4ccc(CCC(=O)N5CCN(CCCOc7ccc8nccc(C(=O)NCC(=O)N9CCC[C@H]9C#N)c8c7)CC5)cc4C6)CC3)cc12 | – | BALB/c nude mice, U-87 MG xenograft, kidney | 1 h, blocking, added: DOTA-FAPI-04 40 nmol/mouse co-injected | 4.45 ± 1.09 %ID/g
CCCC[C@H](NC(=O)CNC(=O)CNC(=O)[C@H](CCCCNC(=O)[C@H](CC(=O)O)NC(=O)C(C)c1ccc(CC(C)C)cc1)NC(=O)CN1CCN(CC(=O)O)CCN(CC(=O)O)CCN(CC(=O)O)CC1)C(=O)N[C@H]1CC(=O)NCCCC[C@@H](C(N)=O)NC(=O)[C@H](Cc2c[nH]c3ccccc23)NC(=O)[C@H](CCCNC(=N)N)NC(=O)[C@@H](Cc2ccccc2)NC(=O)[C@H](Cc2c[nH]cn2)NC1=O (stereo partly drawn) [lutetium-177 labelled] | – | C57 mice, tumour-bearing, stomach | intravenous, 0.037 MBq, 0.5 h | 3.99 ± 0.56 %ID/g
O=C([O-])CN1CCN(CC(=O)[O-])CCN(CC(=O)NC[C@H]2CC[C@H](C(=O)N[C@H](Cc3cnc4ccccc4c3)C(=O)NCCCC[C@H](NC(=O)N[C@@H](CCC(=O)O)C(=O)O)C(=O)O)CC2)CCN(CC(=O)[O-])CC1.[64Cu+2] | ex vivo gamma counting | 22Rv1 tumour-bearing mice, blood | intravenous, 0.74 MBq, 1 h post-injection | 2.4 %ID/g
N[C@H](CSC(F)(F)[18F])C(=O)O | – | Kunming mice, turpentine inflammation, brain | intravenous, 0.74 MBq, 60 min | 0.91 ± 0.08 %ID/g
CCCC[C@H](NC(=O)CCCCCCCNC(=O)CN1CCN(CC(=O)O)CCN(CC(=O)O)CC1)C(=O)N[C@H]1CC(=O)NCCCC[C@@H](C(N)=O)NC(=O)[C@H](Cc2c[nH]c3ccccc23)NC(=O)[C@H](CCCNC(=N)N)NC(=O)[C@@H](Cc2ccccc2)NC(=O)[C@H](Cc2c[nH]cn2)NC1=O [fluorine-18 labelled] | – | C57 mice, B16/F10 melanoma, liver | intravenous, 1 h, added: NDP-MSH 10 µg | 1.89 ± 0.23 %ID/g
CC(C)C[C@H](NC(=O)[C@@H](CCCCNC(=O)[C@@H](Cc1ccccc1)NC(=O)CCCCCCCNC(=O)CN1CCN(CC(=O)O)CCN(CC(=O)O)CCN(CC(=O)O)CC1)NC(=O)[C@H](Cc1ccc(O)cc1)NC(=O)[C@H](CO)NC(=O)[C@H](Cc1c[nH]c2ccccc12)NC(=O)[C@H](Cc1c[nH]cn1)NC(=O)[C@@H]1CCC(=O)N1)C(=O)N[C@@H](CCCNC(=N)N)C(=O)N1CCC[C@H]1C(=O)NCC(N)=O [indium-111 labelled] | – | male athymic nude mice, DU-145 prostate cancer xenograft, intestines | intravenous, 0.037 MBq, 2 h | 2.57 ± 0.34 %ID
CC(=O)N([O-])CCCCCNC(=O)CCC(=O)N([O-])CCCCCNC(=O)CCC(=O)N([O-])CCCCCN.[89Zr+4] | gamma counting | healthy Balb/c mice, muscle | intravenous, 24 h, 89Zr-labelled complex | 0.01 %ID/g
O=C(NCC1OC2CCC=CCCC2O1)c1ccc(COCCOCCOCC[18F])cc1 (stereo not drawn) | – | healthy female BALB/c nude mice, small intestine | intravenous, 7.4 MBq per mouse, 30 min | 10.3 ± 0.9 %ID/g
Cc1nc(N)nc2c1C(=O)N[C@@H](c1ccc(F)cc1-c1cccc(OCC[18F])n1)C2 | ex vivo biodistribution | C57BL/6 mice, heart | intravenous, 1 MBq, 30 min | 0.64 ± 0.07 %ID
CCCC[C@H](NC(=O)COCCOCCNC(=O)CN1CCN(CC(=O)O)CCN(CC(=O)O)CC1)C(=O)N[C@H]1CC(=O)NCCCC[C@@H](C(N)=O)NC(=O)[C@H](Cc2c[nH]c3ccccc23)NC(=O)[C@H](CCCNC(=N)N)NC(=O)[C@@H](Cc2ccccc2)NC(=O)[C@H](Cc2c[nH]cn2)NC1=O [fluorine-18 labelled] | – | C57 mice B16-F10 melanoma, stomach | intravenous, 0.37 MBq, 2 h | 0.35 ± 0.14 %ID/g
COc1ccc(Nc2nc(Nc3ccc(OCCOCCOCC[18F])cc3)ncc2Br)cc1 | – | ICR mice, S180 tumour-bearing, kidney | intravenous, 370 kBq, 15 min | 3.49 ± 0.12 %ID/g
Cc1cc(C)n(CCN(CCN)CCCCCCNC(=O)[C@@H](N)Cc2c[nH]cn2)n1.[99Tc+].[C-]#[O+].[C-]#[O+].[C-]#[O+] | – | BALB/c nude mice, MCF7 xenograft, pancreas | intravenous, 15 min | 0.71 ± 0.32 %IA/g
N#C[C@@H]1CCCN1C(=O)CNC(=O)c1ccnc2ccc(OCCCN3CCN(C(=O)CCc4ccc(O)c(CN5CCN6CC(=O)[O][Al-]([18F])([O]C(=O)C5)[O]c5ccc(CCC(=O)N7CCN(CCCOc8ccc9nccc(C(=O)NCC(=O)N%10CCC[C@H]%10C#N)c9c8)CC7)cc5C6)c4)CC3)cc12 (stereo partly drawn) | – | BALB/c nude mice, U-87 MG xenograft, kidney | 1 h, blocking, added: DOTA-FAPI-04 40 nmol/mouse co-injected | 4.64 ± 0.49 %ID/g
CCCC[C@H](NC(=O)CNC(=O)CNC(=O)[C@H](CCCCNC(=O)[C@H](CCN)NC(=O)C(C)c1ccc(CC(C)C)cc1)NC(=O)CN1CCN(CC(=O)O)CCN(CC(=O)O)CCN(CC(=O)O)CC1)C(=O)N[C@H]1CC(=O)NCCCC[C@@H](C(N)=O)NC(=O)[C@H](Cc2c[nH]c3ccccc23)NC(=O)[C@H](CCCNC(=N)N)NC(=O)[C@@H](Cc2ccccc2)NC(=O)[C@H](Cc2c[nH]cn2)NC1=O (stereo partly drawn) [lutetium-177 labelled] | – | C57 mice, tumour-bearing, spleen | 2 h | 3.34 ± 1.03 %ID/g
COc1ccc2c(c1)C(C)(C)C(/C=C/C1=C(Oc3ccc(C(=O)NCCCCOc4cc(CN(Cc5ccccn5)Cc5ccccn5)cc(CN(Cc5ccccn5)Cc5ccccn5)c4)cc3)C(=C/C=C3/N(CCCCS(=O)(=O)[O-])c4ccc(OC)cc4C3(C)C)CCC1)=[N+]2CCCCS(=O)(=O)[O-].O=[N+]([O-])[O-].O=[N+]([O-])[O-].[99Tc+].[C-]#[O+].[C-]#[O+].[C-]#[O+].[Zn+2] | – | healthy BALB/c mice, bone | 12 h | 0.76 %ID/g and 0.63 %ID/g and 0.89 %ID/g and 0.84 %ID/g
CN(O)C(=O)CCC(=O)NCCCN(CCCCN(CCCNC(=O)CCC(=O)N(C)O)C(=O)CCC(=O)N(C)O)C(=O)CCC(=O)N(C)O.[89Zr] | gamma counting | healthy Balb/c mice, muscle | intravenous, 4 h, 89Zr-labelled complex | 0.01 %ID/g
C[N+](C)(CCOCCOCCOCCNC(=S)Nc1ccc(C[C@H]2CN(CC(=O)[O-])CCN(CC(=O)[O-])CCN2CC(=O)[O-])cc1)C[c-]1cccc1.[64Cu+2].[Fe+2].c1cc[cH-]c1 | item: liver | nude mice, BxPC-3 tumour | 8 h, pretargeting, 72 h lag | 0.4 ± 0.1 %ID/g
O=C(NCC1OC2CCC=CCCC2O1)c1ccc([18F])nc1 (stereo not drawn) | – | healthy female BALB/c nude mice, pancreas | intravenous, 7.4 MBq per mouse, 10 min | 6.3 ± 2.3 %ID/g
COc1ccc(Nc2nc(Nc3ccc(OCCOCC[18F])cc3)ncc2Br)cc1 | – | ICR mice, S180 tumour-bearing, heart | intravenous, 370 kBq, 30 min | 2.93 ± 0.14 %ID/g

Repeated from above:
Compound | test | system | conditions | tissue uptake
N#C[C@@H]1CCCN1C(=O)CNC(=O)c1ccnc2ccc(OCCCN3CCN(C(=O)CCc4ccc(O)c(CN5CCN6CC(=O)[O][Al-]([18F])([O]C(=O)C5)[O]c5ccc(CCC(=O)N7CCN(CCCOc8ccc9nccc(C(=O)NCC(=O)N%10CCC[C@H]%10C#N)c9c8)CC7)cc5C6)c4)CC3)cc12 (stereo partly drawn) | – | BALB/c nude mice, U-87 MG xenograft, kidney | 1 h, blocking, added: DOTA-FAPI-04 40 nmol/mouse co-injected | 4.64 ± 0.49 %ID/g
